Measured values collected from several papers.
Each line is one published result; not all experiments were run side by side. Numbers after ± are the reported error.

Structure (SMILES) = COCc1c(C(C)C)nc(C(C)C)c(/C=C/[C@@H](O)C[C@@H](O)CC(=O)O)c1-c1ccc(F)cc1; cell line = PANC-1; test = cell growth, SRB; conditions = 72 h, 10% FBS; IC50 = 35.3 µM
Structure (SMILES) = COc1cc(O)c(CC=C(C)C)c(O)c1C(=O)/C=C/c1ccc(O)cc1; cell line = LAPC4; test = AR transcriptional activity, antagonist, PSA promoter luciferase; conditions = 24 h; IC50 = 0.276 µM
Structure (SMILES) = COc1ccc(C[C@H](N)C(=O)N[C@H]2[C@@H](O)[C@H](n3cnc4c(N(C)C)ncnc43)O[C@@H]2CO)cc1; cell line = NIH3T3; test = resazurin; conditions = 1000 cells per well; IC50 = 5.88 ± 0.85 µM
Structure (SMILES) = Cc1ccc(-c2cc3ccccc3[nH]2)cc1; cell line = HEK293 NF-κB luciferase reporter; test = reporter gene, measured: NF-κB; conditions = 6 h, together with: TNFα; IC50 = 1.5 ± 0.3 µM
Structure (SMILES) = CCCCCCCCCCCCCCCCCC[N+](C)(C)CCCS(=O)(=O)[O-]; cell line = SK-OV-3 eGFP-transfected; test = cell viability, MTT; conditions = 24 h; IC50 = 77 µM
Structure (SMILES) = O=C(/C=C/c1cccc(O)c1)c1ccc(F)cc1; cell line = WRL68; test = cell growth or viability, MTT; conditions = 72 h; IC50 = 38.9 µM
Structure (SMILES) = Cc1cc(C(=O)/C(=C\c2ccc(C)c(Cl)c2)c2ccc(C)c(Cl)c2)c(C(=O)N2CCCCC2)c(=O)[nH]1; cell line = human Fibroblast; test = cell growth or viability, MTT; conditions = 72 h; IC50 = 8.1 µM
Structure (SMILES) = COC(=O)c1c(-c2cccc([N+](=O)[O-])c2)c2n(c1C(=O)OC)CCn1cccc1-2; cell line = PANC-1; test = cell growth or viability, MTT; conditions = 48 h; IC50 = 34.1 µM
Structure (SMILES) = CC(=O)c1cc2c(C)cc(=O)oc2c(C)c1O; cell line = NIH3T3; test = hyaluronan secretion; conditions = 72 h; IC50 = 17.7 ± 10.6 µM
Structure (SMILES) = COC(=O)c1c(-c2ccc(Cl)cc2)c2n(c1C(=O)OC)CCn1cccc1-2; cell line = PANC-1; test = cell growth or viability, MTT; conditions = 48 h; IC50 = 73.9 µM
Structure (SMILES) = CC(C)Oc1ccc(C(=O)Cn2ccnc2)cc1-n1c(CN2CCN(C(=O)COc3ccc(Cl)cc3)CC2)nc2ccccc2c1=O; cell line = KARPAS-422; test = cell viability, CellTiter-Glo; conditions = 24 h; IC50 = 0.1 to 10 µM
Structure (SMILES) = O=c1c(O)c(-c2ccc(O)c(O)c2)oc2cc(O)cc(O)c12; cell line = MOLT-3; test = cell growth or viability, ATP luminescence; conditions = 24 h; IC50 = 20 µM
Structure (SMILES) = O=C(N/N=C/c1cc(-c2ccsc2)ccc1O)c1ccccc1O; cell line = PANC-1; test = cell growth or viability; conditions = 72 h; IC50 = 2.32 µM
Structure (SMILES) = COc1ccc2c(NC(=O)CI)c(C(=O)c3cc(OC)c(OC)c(OC)c3)oc2c1; cell line = L1210; test = cell growth or viability; conditions = 24 h; IC50 = 0.57 µM
Structure (SMILES) = C=CCc1ccc(O)c(-c2ccc(O)c(CC=C)c2)c1; cell line = PANC-1; test = cell proliferation, MTS; conditions = 24 h, together with: temozolomide 250 µM; IC50 = 10 µM
Structure (SMILES) = Cn1cc(Nc2nccc(-c3ccc4c(c3)CN(C3COC3)CC[C@H]4NC(=O)c3cn(C(C)(C)C)nn3)n2)cn1; cell line = human primary monocytes; test = TNFα production; conditions = together with: plate-bound human IgG; IC50 = 0.0056 ± 0.0015 µM
Structure (SMILES) = COc1cc(C(=O)c2sc3cc(C)ccc3c2N)cc(OC)c1OC; cell line = L1210; test = cell growth or viability; IC50 = 0.009 µM
Structure (SMILES) = COC(=O)c1c(-c2ccc(Cl)cc2Cl)c2n(c1C(=O)OC)CCn1cccc1-2; cell line = PANC-1; test = cell growth or viability, MTT; conditions = 48 h; IC50 = 69.6 µM
Structure (SMILES) = COc1ccccc1-c1nccc(COc2ccccc2C[C@@H](Oc2cccc3sc(-c4ccc(F)cc4)c(-c4ccc(OCCN5CCN(C)CC5)c(Cl)c4C)c23)C(=O)O)n1; cell line = NCI-H929; test = cell viability, MTT; conditions = 48 h, 10% CFS; IC50 = 0.025 µM
Structure (SMILES) = COc1cc(C(=O)c2sc3cc(C)ccc3c2NC(=O)CCl)cc(OC)c1OC; cell line = L1210; test = cell growth or viability; conditions = 24 h; IC50 = 0.059 µM
Structure (SMILES) = CNC(=O)c1cc(Oc2ccc(NC(=O)Nc3ccc(Cl)c(C(F)(F)F)c3)cc2)ccn1; cell line = HepG2 2.2.15 with DHFR overexpression; test = cell viability, MTT; IC50 = > 3 µM
Structure (SMILES) = CC(C)C[C@H](NC(=O)[C@H](Cc1ccccc1)NC(=O)c1cnccn1)B(O)O; cell line = RPMI-8226; test = cell viability; conditions = 48 h, together with: EGCG 1300 nM; IC50 = 0.0093 µM
Structure (SMILES) = C[C@H](O)c1cc(C(=O)N[C@@H](C)Cn2ccc(-c3ccc(C#N)c(Cl)c3)n2)n[nH]1; cell line = LAPC4; test = cell growth or viability, ATP luminescence; IC50 = 0.84 µM

For quick reference, copied from above:
Structure (SMILES) = COc1cc(C(=O)c2sc3cc(C)ccc3c2N)cc(OC)c1OC; cell line = L1210; test = cell growth or viability; IC50 = 0.009 µM
Structure (SMILES) = COC(=O)c1c(-c2ccc(Cl)cc2Cl)c2n(c1C(=O)OC)CCn1cccc1-2; cell line = PANC-1; test = cell growth or viability, MTT; conditions = 48 h; IC50 = 69.6 µM
Structure (SMILES) = COc1ccccc1-c1nccc(COc2ccccc2C[C@@H](Oc2cccc3sc(-c4ccc(F)cc4)c(-c4ccc(OCCN5CCN(C)CC5)c(Cl)c4C)c23)C(=O)O)n1; cell line = NCI-H929; test = cell viability, MTT; conditions = 48 h, 10% CFS; IC50 = 0.025 µM
